# Measured values collected from several papers.
# Each line is one published result; not all experiments were run side by side.
# Target: Bone morphogenetic protein receptor type-2 (BMPR2, Homo sapiens, UniProt Q13873)
# Residues used in one study (Q13873 27-1038): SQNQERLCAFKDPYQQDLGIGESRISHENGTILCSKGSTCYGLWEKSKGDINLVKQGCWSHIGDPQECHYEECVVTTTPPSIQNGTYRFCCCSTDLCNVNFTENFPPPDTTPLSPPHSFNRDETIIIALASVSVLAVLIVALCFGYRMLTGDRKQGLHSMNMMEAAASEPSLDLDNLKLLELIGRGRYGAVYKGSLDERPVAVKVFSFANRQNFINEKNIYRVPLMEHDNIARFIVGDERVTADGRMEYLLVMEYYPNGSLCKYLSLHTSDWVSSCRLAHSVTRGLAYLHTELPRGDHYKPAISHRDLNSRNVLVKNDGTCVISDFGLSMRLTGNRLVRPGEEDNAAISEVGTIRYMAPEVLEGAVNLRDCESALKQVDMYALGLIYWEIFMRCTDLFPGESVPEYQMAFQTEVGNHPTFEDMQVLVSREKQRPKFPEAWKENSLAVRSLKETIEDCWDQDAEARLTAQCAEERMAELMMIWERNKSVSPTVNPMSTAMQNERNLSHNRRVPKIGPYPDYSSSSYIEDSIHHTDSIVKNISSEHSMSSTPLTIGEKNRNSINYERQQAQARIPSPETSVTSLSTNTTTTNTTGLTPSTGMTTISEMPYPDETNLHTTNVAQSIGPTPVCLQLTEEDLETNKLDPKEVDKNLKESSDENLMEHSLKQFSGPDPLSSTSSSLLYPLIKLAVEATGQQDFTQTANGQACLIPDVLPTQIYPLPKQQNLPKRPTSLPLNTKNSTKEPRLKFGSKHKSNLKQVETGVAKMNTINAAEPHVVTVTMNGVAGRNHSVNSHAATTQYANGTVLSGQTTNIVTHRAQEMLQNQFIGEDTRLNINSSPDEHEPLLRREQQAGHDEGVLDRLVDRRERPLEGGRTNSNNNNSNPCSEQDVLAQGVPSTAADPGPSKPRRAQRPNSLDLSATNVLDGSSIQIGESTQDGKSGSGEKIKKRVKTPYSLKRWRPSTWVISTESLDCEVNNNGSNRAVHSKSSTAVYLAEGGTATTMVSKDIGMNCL
Structure (SMILES),observed,mode,technique,tested at,relative to,measurement,value
COc1cc(Nc2nc(C)cc(-c3cnn4nc(OC)ccc34)n2)cc(C(F)(F)F)c1,,inhibitor,,1 µM,control,remaining activity,100%
C=CC(=O)N1CCCC(n2c(=O)c3ncccc3n(Cc3ccc(Oc4ccccc4)cc3)c2=O)C1 (stereo not shown),cell-free assay,,competition with immobilised ligand,1 µM,,remaining binding,76%
NC(=O)[C@@H](O)C[C@H]1CCc2sc3ncnc(O[C@H]4CC[C@H](N5CCOCC5)CC4)c3c21,enzyme activity,inhibitor,,10 µM,,inhibition,37%
C=CC(=O)N1CCc2ccc(-n3c(=O)ccc4cnc5ccc(-c6cnn(C)c6)cc5c43)cc21,,,KINOMEscan,1 µM,DMSO control,remaining binding,100%
CCN1CCN(Cc2ccc(C(=O)Nc3ccc(C)c(NCc4cnc5[nH]ccc5c4OC)c3)cc2C(F)(F)F)CC1,binding,,competition with immobilised ligand,1 µM,,remaining binding,84%
CNS(=O)(=O)Nc1nccc(Cc2c(C)c3ccc(Oc4ncccc4F)cc3oc2=O)c1F,cell-free assay,,competition with immobilised ligand,10 µM,,remaining binding,100%
CN1CCN(Cc2ccc(NC(=O)c3cccc(C#Cc4cnc(N)c5ncccc45)c3)cc2C(F)(F)F)CC1,cell-free assay,,competition with immobilised ligand,0.5 µM,,remaining binding,100%
CN1CC[C@@H](COc2cnc(C#N)cc2-c2ccn3nc(NC(=O)C4CC4)cc3c2)C1,enzyme activity,inhibitor,,1 µM,,inhibition,-9%
CC(=O)N1c2ccc(-c3ccc(CNC(=O)c4cn5cc(-c6cnc(N)nc6)nc(N6CCOCC6)c5n4)cc3)cc2CC[C@@H]1C,,,KINOMEscan,10 µM,,remaining binding,85%
Cc1ccc(-c2c(/C=C(\C#N)C(=O)NC(C)C)n(CCCO)c3ncnc(N)c23)cc1,cell-free assay,,competition with immobilised ligand,1 µM,,remaining binding,72%
C=C1CCCCCCCCCC(CO)C1=O (stereo not shown),cell-free assay,,,10 µM,,remaining signal,75%
CN1CCN(Cc2ccc(-c3ccc(CO[C@H]4CCC[C@@H]4NC(=O)c4cc(-c5cnn(C)c5)cnc4N)cc3)cc2)CC1,enzyme activity,inhibitor,,0.1 µM,,inhibition,-3%
Cc1cnc2nc1Nc1cccc(c1)COC/C=C/COCc1cc(ccc1OCCN1CCOCC1)N2,,,,concentration not given,,percent of control,90%
